Measured values gathered from unrelated publications.
Every numbered part comes from another study and shows a few of its results, in no order.
Sequence of UniProt O15264 (whole entry, looked up): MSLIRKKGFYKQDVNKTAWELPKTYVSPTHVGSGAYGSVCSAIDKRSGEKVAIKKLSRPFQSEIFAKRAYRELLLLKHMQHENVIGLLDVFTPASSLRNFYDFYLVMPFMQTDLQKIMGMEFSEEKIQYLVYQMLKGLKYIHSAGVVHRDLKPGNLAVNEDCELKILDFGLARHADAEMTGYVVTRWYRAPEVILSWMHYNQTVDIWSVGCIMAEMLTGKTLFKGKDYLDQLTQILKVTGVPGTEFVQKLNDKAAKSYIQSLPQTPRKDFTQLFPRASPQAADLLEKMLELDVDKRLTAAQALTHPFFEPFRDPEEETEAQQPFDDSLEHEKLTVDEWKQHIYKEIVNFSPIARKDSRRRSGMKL
Sequence of UniProt Q02779 (whole entry, looked up): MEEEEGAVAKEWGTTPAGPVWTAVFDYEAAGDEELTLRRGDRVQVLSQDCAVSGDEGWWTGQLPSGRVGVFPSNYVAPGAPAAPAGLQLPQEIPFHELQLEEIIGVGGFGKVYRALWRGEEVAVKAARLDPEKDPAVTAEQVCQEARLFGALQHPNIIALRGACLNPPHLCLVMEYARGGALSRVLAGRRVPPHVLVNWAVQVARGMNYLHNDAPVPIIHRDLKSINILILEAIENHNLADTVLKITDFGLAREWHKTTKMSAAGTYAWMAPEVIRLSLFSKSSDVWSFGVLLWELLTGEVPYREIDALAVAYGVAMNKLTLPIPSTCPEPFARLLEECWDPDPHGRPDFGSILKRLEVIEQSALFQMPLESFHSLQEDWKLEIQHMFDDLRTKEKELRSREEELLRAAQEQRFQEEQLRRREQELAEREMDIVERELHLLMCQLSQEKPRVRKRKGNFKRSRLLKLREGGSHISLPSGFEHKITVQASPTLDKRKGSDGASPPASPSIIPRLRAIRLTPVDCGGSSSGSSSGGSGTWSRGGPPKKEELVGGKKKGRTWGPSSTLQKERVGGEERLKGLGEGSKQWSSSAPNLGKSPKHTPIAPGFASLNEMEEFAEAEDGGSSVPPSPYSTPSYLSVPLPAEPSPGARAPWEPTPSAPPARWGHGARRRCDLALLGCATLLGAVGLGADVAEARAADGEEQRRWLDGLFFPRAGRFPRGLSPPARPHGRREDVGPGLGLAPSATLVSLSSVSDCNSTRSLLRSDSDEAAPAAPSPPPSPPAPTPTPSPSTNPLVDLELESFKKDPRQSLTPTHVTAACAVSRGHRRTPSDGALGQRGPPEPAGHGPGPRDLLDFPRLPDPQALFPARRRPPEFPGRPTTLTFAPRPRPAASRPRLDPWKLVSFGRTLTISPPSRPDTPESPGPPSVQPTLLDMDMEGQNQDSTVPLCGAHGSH
Sequence of UniProt P57058 (whole entry, looked up): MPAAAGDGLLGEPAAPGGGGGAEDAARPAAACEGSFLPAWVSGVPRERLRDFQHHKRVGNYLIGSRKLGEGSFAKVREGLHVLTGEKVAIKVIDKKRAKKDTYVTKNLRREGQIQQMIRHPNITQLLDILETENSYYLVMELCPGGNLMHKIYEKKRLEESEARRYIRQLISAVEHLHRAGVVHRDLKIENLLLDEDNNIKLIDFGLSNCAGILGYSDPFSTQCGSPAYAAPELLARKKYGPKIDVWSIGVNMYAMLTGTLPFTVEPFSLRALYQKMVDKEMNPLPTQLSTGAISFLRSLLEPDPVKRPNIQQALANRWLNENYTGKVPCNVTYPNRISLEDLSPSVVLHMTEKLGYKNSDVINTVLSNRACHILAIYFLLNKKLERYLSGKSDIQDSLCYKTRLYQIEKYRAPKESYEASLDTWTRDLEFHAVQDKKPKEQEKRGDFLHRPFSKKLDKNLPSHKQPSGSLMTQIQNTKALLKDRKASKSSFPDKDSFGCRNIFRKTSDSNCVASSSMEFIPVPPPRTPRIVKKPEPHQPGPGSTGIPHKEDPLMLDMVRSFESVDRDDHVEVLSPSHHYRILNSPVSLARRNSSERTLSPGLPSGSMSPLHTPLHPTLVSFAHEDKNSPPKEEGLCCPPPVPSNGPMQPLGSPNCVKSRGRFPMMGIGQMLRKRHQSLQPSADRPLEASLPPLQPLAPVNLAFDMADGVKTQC
Sequence of UniProt Q5S007 (whole entry, looked up): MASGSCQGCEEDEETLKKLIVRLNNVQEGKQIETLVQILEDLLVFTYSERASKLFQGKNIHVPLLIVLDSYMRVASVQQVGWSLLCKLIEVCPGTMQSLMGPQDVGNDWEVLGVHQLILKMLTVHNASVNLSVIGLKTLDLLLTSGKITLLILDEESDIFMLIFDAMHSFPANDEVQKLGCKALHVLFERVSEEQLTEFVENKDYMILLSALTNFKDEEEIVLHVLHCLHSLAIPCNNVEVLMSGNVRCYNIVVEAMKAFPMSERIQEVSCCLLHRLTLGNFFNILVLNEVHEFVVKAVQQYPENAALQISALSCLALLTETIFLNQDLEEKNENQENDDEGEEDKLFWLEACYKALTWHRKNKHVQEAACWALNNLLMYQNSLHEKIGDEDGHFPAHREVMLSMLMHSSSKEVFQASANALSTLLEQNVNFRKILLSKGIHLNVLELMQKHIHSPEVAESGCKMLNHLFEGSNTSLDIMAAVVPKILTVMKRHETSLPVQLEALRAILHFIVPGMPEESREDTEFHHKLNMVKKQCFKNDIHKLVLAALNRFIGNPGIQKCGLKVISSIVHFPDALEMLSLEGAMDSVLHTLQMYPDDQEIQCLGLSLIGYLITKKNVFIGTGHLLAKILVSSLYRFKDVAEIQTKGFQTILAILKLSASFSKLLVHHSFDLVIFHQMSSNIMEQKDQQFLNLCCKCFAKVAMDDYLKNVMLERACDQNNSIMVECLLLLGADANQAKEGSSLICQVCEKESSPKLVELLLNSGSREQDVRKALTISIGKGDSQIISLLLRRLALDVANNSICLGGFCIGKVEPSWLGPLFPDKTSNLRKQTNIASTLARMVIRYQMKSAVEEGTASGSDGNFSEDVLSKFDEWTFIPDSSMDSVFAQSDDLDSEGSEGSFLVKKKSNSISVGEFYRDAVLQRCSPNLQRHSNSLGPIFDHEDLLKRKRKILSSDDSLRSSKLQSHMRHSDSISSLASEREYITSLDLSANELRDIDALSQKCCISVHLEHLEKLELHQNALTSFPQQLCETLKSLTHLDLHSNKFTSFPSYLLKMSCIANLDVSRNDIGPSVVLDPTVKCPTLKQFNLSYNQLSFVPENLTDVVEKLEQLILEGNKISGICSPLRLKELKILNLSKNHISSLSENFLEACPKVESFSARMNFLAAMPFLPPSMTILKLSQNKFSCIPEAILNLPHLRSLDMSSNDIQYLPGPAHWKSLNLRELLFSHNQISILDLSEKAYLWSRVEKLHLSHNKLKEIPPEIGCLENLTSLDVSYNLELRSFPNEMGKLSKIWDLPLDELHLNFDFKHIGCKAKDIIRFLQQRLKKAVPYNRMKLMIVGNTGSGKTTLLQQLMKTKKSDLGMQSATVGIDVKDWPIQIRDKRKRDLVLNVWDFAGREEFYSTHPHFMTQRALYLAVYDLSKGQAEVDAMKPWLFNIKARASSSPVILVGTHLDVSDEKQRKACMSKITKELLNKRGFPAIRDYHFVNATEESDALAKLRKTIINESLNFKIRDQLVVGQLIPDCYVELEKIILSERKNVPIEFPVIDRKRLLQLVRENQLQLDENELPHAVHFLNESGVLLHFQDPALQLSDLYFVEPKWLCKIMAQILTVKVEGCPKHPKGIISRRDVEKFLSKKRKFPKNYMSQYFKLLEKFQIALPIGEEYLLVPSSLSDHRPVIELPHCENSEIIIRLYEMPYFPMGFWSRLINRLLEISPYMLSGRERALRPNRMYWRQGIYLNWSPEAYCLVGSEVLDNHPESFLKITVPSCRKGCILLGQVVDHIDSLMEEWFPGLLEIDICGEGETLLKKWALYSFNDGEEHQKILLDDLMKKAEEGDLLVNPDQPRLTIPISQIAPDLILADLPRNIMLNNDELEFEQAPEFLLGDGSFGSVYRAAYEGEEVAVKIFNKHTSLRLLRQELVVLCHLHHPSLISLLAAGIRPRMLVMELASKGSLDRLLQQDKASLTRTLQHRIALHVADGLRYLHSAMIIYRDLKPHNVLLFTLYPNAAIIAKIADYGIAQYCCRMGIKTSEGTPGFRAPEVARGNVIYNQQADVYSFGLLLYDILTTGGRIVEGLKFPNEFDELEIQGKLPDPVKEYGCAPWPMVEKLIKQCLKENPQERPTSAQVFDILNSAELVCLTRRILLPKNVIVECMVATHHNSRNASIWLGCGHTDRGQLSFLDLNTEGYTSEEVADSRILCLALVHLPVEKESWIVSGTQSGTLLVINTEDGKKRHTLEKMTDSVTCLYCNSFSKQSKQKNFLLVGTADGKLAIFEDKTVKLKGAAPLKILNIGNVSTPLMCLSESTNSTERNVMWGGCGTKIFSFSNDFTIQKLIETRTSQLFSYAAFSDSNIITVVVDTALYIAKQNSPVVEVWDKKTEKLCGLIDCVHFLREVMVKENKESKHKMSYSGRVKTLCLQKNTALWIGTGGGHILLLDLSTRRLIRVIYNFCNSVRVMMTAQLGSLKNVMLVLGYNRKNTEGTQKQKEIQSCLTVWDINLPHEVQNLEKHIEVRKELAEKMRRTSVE
Sequence of UniProt P68400 (whole entry, looked up): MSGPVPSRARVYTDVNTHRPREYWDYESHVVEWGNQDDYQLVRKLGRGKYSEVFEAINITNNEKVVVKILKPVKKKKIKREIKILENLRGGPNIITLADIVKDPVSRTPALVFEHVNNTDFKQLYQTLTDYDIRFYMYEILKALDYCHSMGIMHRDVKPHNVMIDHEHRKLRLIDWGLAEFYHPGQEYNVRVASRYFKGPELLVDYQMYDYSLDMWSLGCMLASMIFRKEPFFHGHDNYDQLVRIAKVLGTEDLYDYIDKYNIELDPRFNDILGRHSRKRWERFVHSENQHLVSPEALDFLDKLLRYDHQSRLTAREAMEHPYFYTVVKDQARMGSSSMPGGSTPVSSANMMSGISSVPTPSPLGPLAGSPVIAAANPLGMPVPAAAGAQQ

Study 1
Compound: CN(C)CC#Cc1ccc(OCCCc2sc(N3CCc4cccc(C(=O)Nc5nc6ccccc6s5)c4C3)nc2C(=O)O)c(F)c1
Observed: cell-free assay
Method: competition with immobilised ligand
Concentration: 1 µM
MAPK13 (Homo sapiens, UniProt O15264) — remaining binding: 97%.
For MAP3K10 (Homo sapiens, UniProt Q02779): remaining binding read 100%.
TAOK2 (Homo sapiens, UniProt Q9UL54) — remaining binding: 100%.
It gave 99% for remaining binding (MAPK7 (Homo sapiens, UniProt Q13164)).
For MAP3K13 (Homo sapiens, UniProt O43283): remaining binding read 96%.
It gave 100% for remaining binding (ERBB2 (Homo sapiens, UniProt P04626)).
PRKAA2 (Homo sapiens, UniProt P54646) — remaining binding: 99%.
It gave 76% for remaining binding (MAPK9 (Homo sapiens, UniProt P45984)).
MAPK14 (Homo sapiens, UniProt Q16539) — remaining binding: 100%.
For PAK6 (Homo sapiens, UniProt Q9NQU5): remaining binding read 100%.
The remaining binding was 100% (CDK16 (Homo sapiens, UniProt Q00536)).
For MAP2K3 (Homo sapiens, UniProt P46734): remaining binding read 100%.
For PRKD1 (Homo sapiens, UniProt Q15139): remaining binding read 100%.
For HUNK (Homo sapiens, UniProt P57058): remaining binding read 56%.
For TSSK1B (Homo sapiens, UniProt Q9BXA7): remaining binding read 70%.
For CAMKK1 (Homo sapiens, UniProt Q8N5S9): remaining binding read 87%.
PHKG1 (Homo sapiens, UniProt Q16816) — remaining binding: 98%.
CLK3 (Homo sapiens, UniProt P49761) — remaining binding: 86%.
The remaining binding was 85% (TIE1 (Homo sapiens, UniProt P35590)).
For Ribosomal protein S6 kinase alpha-1, N-terminal kinase domain (RPS6KA1, Homo sapiens, UniProt Q15418): remaining binding read 81%.
STK25 (Homo sapiens, UniProt O00506) — remaining binding: 100%.
For NTRK1 (Homo sapiens, UniProt P04629): remaining binding read 100%.
For Tyrosine-protein kinase ABL1, phosphorylated (ABL1, Homo sapiens, UniProt P00519, F317L): remaining binding read 100%.

Study 2
Organism: Plasmodium berghei
Action: inhibitor
Cell line: Huh-7
Strain: liver stage
Concentration: 10 µM
Time: 24 h
Relative to: untreated control
`CC(C)(C)NC[C@H](O)c1ccc(O)c(CO)c1` has an infection rate of 109%.
The infection rate of `OCCN1C[C@H](O)[C@@H](O)[C@H](O)[C@H]1CO` is reported as 97.7%.
The infection rate of `CCC(NC(C)C)C(O)c1ccc(O)c(O)c1` (stereo not shown) is reported as 92.7%.
With `COc1cccc(OC)c1C(=O)N[C@@H]1C(=O)N2[C@@H]1SC(C)(C)[C@@H]2C(=O)O` the infection rate was 95.3%.
The infection rate of `C=C1c2cccc(O)c2C(=O)C2=C(O)[C@]3(O)C(=O)C(C(N)=O)=C(O)[C@@H](N(C)C)[C@@H]3[C@@H](O)[C@H]12` is reported as 36.6%.
The infection rate of `CC(=O)OC(C)C[N+](C)(C)C` (stereo not shown) is reported as 99%.
The infection rate of `N[C@H]1C(O)O[C@H](CO)[C@@H](O)[C@@H]1O` (stereo partly shown) is reported as 104%.

Study 3
SMILES: O=c1c(-c2ccc(F)cc2)c(-c2ccncc2)[nH]n1-c1ccc(Cl)cc1
Observed: enzyme activity
Action: inhibitor
Concentration: 0.5 µM
Relative to: control
For IRAK4 (Homo sapiens, UniProt Q9NWZ3): remaining activity read 81.9%.
CSNK1A1 (Homo sapiens, UniProt P48729) — remaining activity: 63.7%.
It gave 94.3% for remaining activity (AKT3 (Homo sapiens, UniProt Q9Y243)).
For CSNK2A1 (Homo sapiens, UniProt P68400): remaining activity read 95.3%.
The remaining activity was 102% (LRRK2 (Homo sapiens, UniProt Q5S007)).
CHEK1 (Homo sapiens, UniProt O14757) — remaining activity: 101%.
It gave 92.5% for remaining activity (PLK2 (Homo sapiens, UniProt Q9NYY3)).
It gave 92.6% for remaining activity (PRKCD (Homo sapiens, UniProt Q05655)).
PRKCI (Homo sapiens, UniProt P41743) — remaining activity: 96.2%.
For BTK (Homo sapiens, UniProt Q06187): remaining activity read 83.6%.
MAP4K2 (Homo sapiens, UniProt Q12851) — remaining activity: 87.7%.
It gave 102% for remaining activity (MAPK13 (Homo sapiens, UniProt O15264)).
For MAP2K6 (Homo sapiens, UniProt P52564): remaining activity read 79.4%.
It gave 85.2% for remaining activity (MAPK12 (Homo sapiens, UniProt P53778)).
It gave 101% for remaining activity (Cyclin-dependent kinase 9, with cyclin T1 (CDK9, Homo sapiens, UniProt P50750)).
EPHA5 (Homo sapiens, UniProt P54756) — remaining activity: 106%.
MKNK2 (Homo sapiens, UniProt Q9HBH9) — remaining activity: 97.2%.
For KIT (Homo sapiens, UniProt P10721): remaining activity read 94.9%.
It gave 93.7% for remaining activity (STK38 (Homo sapiens, UniProt Q15208)).
It gave 97.5% for remaining activity (LYN (Homo sapiens, UniProt P07948)).
For MAP3K10 (Homo sapiens, UniProt Q02779): remaining activity read 88.1%.
It gave 93.9% for remaining activity (NEK4 (Homo sapiens, UniProt P51957)).

Study 4
Observed: AlphaScreen signal
Method: AlphaScreen counter screen
Medium: His6 peptide without bromodomain
Concentration: 50 µM
Setting: assay interference check
With `Nc1nccc(-c2ccc3noc(-c4ccc(Cl)cc4)c3c2)n1` the inhibition was 9.05%.
For `CC(C)OC(=O)c1ccc(NC(=O)Nc2ccc(Cl)c(Cl)c2)cc1`, the inhibition was -7.5%.
The inhibition of `Fc1cccc(-c2nnc3ccc(SCc4ccccn4)nn23)c1` is reported as 2.75%.
`O=C1Cc2c([nH]c3ccc(Br)cc23)-c2ccccc2N1` has an inhibition of 10.3%.
`NC(=O)c1ccsc1NC(=O)CSc1nnc(-c2ccco2)n1-c1ccccc1` gave an inhibition of 11.1%.
For `Cl.NCCNS(=O)(=O)c1cccc2c(Cl)cccc12`, the inhibition was 13.7%.

A few entries again (study 4):
With `Nc1nccc(-c2ccc3noc(-c4ccc(Cl)cc4)c3c2)n1` the inhibition was 9.05%.
For `CC(C)OC(=O)c1ccc(NC(=O)Nc2ccc(Cl)c(Cl)c2)cc1`, the inhibition was -7.5%.
The inhibition of `Fc1cccc(-c2nnc3ccc(SCc4ccccn4)nn23)c1` is reported as 2.75%.
`O=C1Cc2c([nH]c3ccc(Br)cc23)-c2ccccc2N1` has an inhibition of 10.3%.
`NC(=O)c1ccsc1NC(=O)CSc1nnc(-c2ccco2)n1-c1ccccc1` gave an inhibition of 11.1%.
For `Cl.NCCNS(=O)(=O)c1cccc2c(Cl)cccc12`, the inhibition was 13.7%.
